Measurements collected from several papers.
Values joined by “and” are separate records of one study, mostly repeats; a detail may differ. ± gives the spread as reported.

COc1ccccc1-c1n[nH]c2nc(NC3CCN(C(=O)Cc4ccc(F)cc4F)CC3)ncc12  relative captured amount (Leishmania CKS1 LINJ.32.3940; bead competition pull-down; Leishmania donovani extract; 10 µM; reference: vehicle): 0.65 and 0.35
Cc1cc(C(=O)Nc2nc3cccc(C)c3n2[C@H]2CCCCN(C(=O)/C=C/CN(C)C)C2)ccn1  ΔTm (Trypanosoma brucei CLK1 C215A; thermal stability, differential scanning fluorimetry; reference: DMSO): 1.17 °C and 1.26 °C and 1.22 °C
CSCC[C@H](NC(=O)[C@@H](N)CSC1CC(=O)N(CCNC(=O)COc2ccc(/C=C/C3=[N+]4C(=Cc5ccc(-c6cccs6)n5[B-]4(F)F)C=C3)cc2)C1=O)C(=O)N[C@@H](CCC(=O)O)C(=O)N[C@@H](Cc1ccccc1)C(=O)N[C@H](C(=O)N[C@@H](C)C(=O)N[C@@H](CCCCN)C(=O)N[C@@H](CC(C)C)C(=O)N[C@@H](Cc1ccccc1)C(=O)N[C@@H](CCCCN)C(=O)N[C@@H](Cc1ccccc1)C(=O)N[C@@H](Cc1ccccc1)C(=O)N[C@@H](CCCCN)C(=O)N[C@@H](CC(=O)O)C(=O)N[C@@H](CC(C)C)C(=O)N[C@@H](CC(C)C)C(=O)NCC(=O)N[C@@H](CCCCN)C(=O)N[C@@H](Cc1ccccc1)C(=O)N[C@@H](CC(C)C)C(=O)NCC(=O)N[C@@H](CC(N)=O)C(=O)N[C@@H](CC(N)=O)C(=O)O)C(C)C (some centres unmarked)  fluorescence excitation increase (alpha-synuclein oligomers; 2 µM, 30 min, emission 735 nm): 1.8 fold
O=P(O)(O)Oc1c2c(c(OP(=O)(O)O)c3c1C1CC3c3cc4ccccc4cc31)C1CC2c2cc3ccccc3cc21  association constant (sphingomyelin; 1H NMR titration; methanol-d4; CH2-N(Me)3 signal): 144 ± 7 M⁻¹
O=C1NC2(CC2)COc2ncc(F)cc2[C@H]2COCCN2c2ccn3ncc1c3n2  alkaline phosphatase activity (Sprague-Dawley rat, male, serum; oral, 5 mg/kg/day, 4 weeks daily, end of recovery period): 102 ± 9.4 U/L
CC[C@H](C)[C@@H]1NC(=O)CNC(=O)[C@H](CC(=O)O)NC(=O)[C@H](CC(=O)O)NC(=O)[C@@H]2CSSC[C@@H]3NC(=O)[C@H](Cc4c[nH]cn4)NC(=O)[C@H](CCCNC(=N)N)NC(=O)[C@H](CCCNC(=N)N)NC(=O)[C@@H](NC(=O)[C@H](CO)NC(=O)[C@@H](N)Cc4c[nH]cn4)CSSC[C@H](NC(=O)[C@H](C)NC(=O)[C@H](Cc4c[nH]c5ccccc45)NC(=O)CNC(=O)[C@H](CSSC[C@@H](C(=O)N[C@@H](CCCCN)C(=O)N4CCC[C@H]4C(=O)N[C@@H](CC(C)C)C(=O)N[C@@H](CCCNC(=N)N)C(=O)N[C@H](C(=O)O)C(C)C)NC1=O)NC(=O)[C@H](CCCNC(=N)N)NC(=O)[C@H](CCCNC(=N)N)NC(=O)[C@H](CC(N)=O)NC(=O)[C@H](CCC(=O)O)NC(=O)[C@H](Cc1c[nH]cn1)NC3=O)C(=O)N[C@@H](Cc1ccc(O)cc1)C(=O)N2  ion current (hKv1.4 human; concentration not given): no effect
CNC(=O)C[C@H](Cc1ccc(F)cc1)NC(=O)[C@@H](Cc1ccc(Cl)cc1Cl)NC(=O)[C@H](N)Cc1ccccc1C#N  IC50 (human chymotrypsin; enzyme activity, inhibitor; PANC-1 cell lysate): > 10 µM
CNc1nc(N[C@@H](CCO)c2ccccc2Cl)nc(N2CCN(C(=O)CCl)C(C(=O)NCC3CCNC3=O)C2)n1 (some centres unmarked)  IC50 (chymotrypsin, human; enzyme activity): > 50 µM
O=C(N[C@@H]1c2ccccc2C[C@H]1N1CCCC1)c1ccc(-c2ccnc3[nH]ccc23)nc1  IC50 (ROCK1/2; MYPT1 phosphorylation, inhibitor, western blot): 0.303 µM
COc1ccccc1-c1n[nH]c2nc(N[C@H]3CC[C@H](NS(=O)(=O)CC(C)C)CC3)ncc12  relative abundance (Leishmania donovani LINJ.27.0510; bead binding competition; Leishmania donovani extract; 20 µM; reference: vehicle): 0.84
CC(C)NCCCn1c(Sc2cc3c(cc2I)OCO3)nc2c(N)ncnc21  tumour residence half-time (epichaperome; PU-PET; mouse, MDA-MB-468 xenograft, tumour): 60 h

A few entries again:
CNC(=O)C[C@H](Cc1ccc(F)cc1)NC(=O)[C@@H](Cc1ccc(Cl)cc1Cl)NC(=O)[C@H](N)Cc1ccccc1C#N  IC50 (human chymotrypsin; enzyme activity, inhibitor; PANC-1 cell lysate): > 10 µM
